Assay results from different studies.
Lines come from different studies, so protocols differ. Several values in a cell are separate wells, animals, samples, runs or records. ± marks the error that the study gave.

| Compound | test | system | setting | how to read | endpoint | value |
| --- | --- | --- | --- | --- | --- | --- |
| CCc1c(C)nc(-c2ccc(Cl)s2)nc1Nc1ccc(CC(=O)O)cc1 |  | C57BL/6J mice, high-fat diet, brown adipose tissue | intraperitoneal, 0.3 mg/kg daily, 60% fat diet 12 weeks, dosed last four | baseline: vehicle | UCP1-positive area | increased |
| O=C(O)CNC(=O)Cc1ccccc1 |  | ventricular cardiomyocytes, C57BL/6 mouse | dose not given, 0.668 s |  | sarcomere length | 1.72 µm |
| N#Cc1ccc2c(-c3ccncc3)c(-c3ccc(F)cc3)nn2c1 | kinase binding, competitor, MIB/MS competition, measured: ENV7 | Candida albicans cell lysate | 100 nM | baseline: DMSO | log2 fold change | -0.0278 |
| CN(O)N=Nc1ccc(S(=O)(=O)Nc2nccs2)cc1 | carrageenan-induced paw edema | Wistar rat | oral, 100 mg/kg, 4 h after carrageenan, together with: carrageenan 1% subplantar | higher = more edema | paw edema volume | 4.59 ± 0.81 a.u. |
| NC(=O)c1cnc2[nH]ccc2c1N[C@@H]1[C@@H]2CC3C[C@H]1C[C@@](O)(C3)C2 | flow cytometry, measured: CD8+ effector memory T cells | Japanese healthy subjects, peripheral blood | oral, 30 mg twice daily, day 4 |  | change from baseline | 0.13% |
| COc1cc2cc(-c3ccc(CC(=O)Nc4cc(C(C)(C)C(F)(F)F)no4)cn3)cnc2cc1OC | RECIST v1.1 | RET-altered advanced solid tumour patients | oral, 75 mg once daily, phase I |  | stable disease as best response | 54% |
| CC(C)NCC(O)c1ccc(O)c(O)c1 (centres unmarked) |  | ventricular cardiomyocytes, C57BL/6 mouse | dose not given, 0.38 s |  | sarcomere length | 1.72 µm |
| NCCc1c[nH]c2ccc(O)cc12 | GCaMP6f imaging | choroid plexus epithelial cells, awake mice | intraperitoneal, 3 mg/kg |  | duration of calcium response | ≥ 60 min |
| COc1cc(/C=C/C(=O)N2CCC=CC2=O)cc(OC)c1OC | quantitative RT-PCR, measured: XIAP, normalised to beta-actin | nude mouse, MDA-MB-468 xenograft, tumour | 15 mg/kg, 21 days, unit not given | baseline: DMSO | mRNA level | 0.535 |
| Cc1cc(NS(=O)(=O)c2ccc(N=NN(C)O)cc2)no1 | carrageenan-induced paw edema | Wistar rat | oral, 100 mg/kg, 1 h after carrageenan, together with: carrageenan 1% subplantar | higher = more edema | paw edema volume | 5.68 ± 0.82 a.u. |
| COc1cc(F)c([C@@H]2CNC(=O)[C@H]2NC(=O)Nc2ccccc2)c(F)c1 | terminal haemodynamics | rat, permanent coronary occlusion MI | 1 mg/kg, 1008 h, 6 weeks post-MI |  | left ventricular systolic pressure | 119 ± 9 mmHg |
| CCN1[C@@H](C(=O)NC23CCC(C(=O)O)(CC2)CC3)[C@H](c2cccc(Cl)c2F)[C@]2(C(=O)Nc3cc(Cl)ccc32)C12CCCCC2 |  | human | 100 mg |  | time to partial response | 32 weeks |
| CN(C)C(=O)c1cc2cnc(Nc3ccc(N4CCNCC4)cn3)nc2n1C1CCCC1 | RNA-seq GSEA, measured: HALLMARK_PEROXISOME gene set | MB002 tumour | concentration not given | baseline: vehicle, direction not given | normalized enrichment score | 1.13 |
| COc1nc(NCc2cn(-c3ccc(NC(=O)c4ccc(C)cc4)cc3)nn2)nc(OC)n1 | cell viability, MTT | normal colonocytes, rat | 72 h |  | IC50 | 25.2 ± 6.94 nM |
| CC#CC(=O)N[C@H]1CCCN(c2c(F)cc(C(N)=O)c3[nH]c(C)c(C)c23)C1 | measured: IgG | human | 10 mg once daily, day 21 | baseline: baseline | serum immunoglobulin | -4.2 % change |
| COc1ncnn2ccc(-c3cnc4nc(C)n(Cc5nnc([C@@H](C)F)o5)c4c3)c12 |  | Homo sapiens, relapsed or refractory AML or MDS | dose not given, splicing factor mutation-positive |  | marrow complete response as best response | 0% |
| Cc1n[nH]c2ccc(-c3cc(OC[C@@H](N)Cc4ccccc4)cnc3-c3ccoc3)cc12 | kinase binding, competitor, MIB/MS competition, measured: SHA3 | Candida albicans cell lysate | 100 nM | baseline: DMSO | log2 fold change | -0.155 |
| N#Cc1ccc2c(c1)[C@H]1CCCN(C(=O)c3ccc4[nH]cnc4c3)[C@H]1C2 |  | human clinical trial, female | oral, 240 mg once daily |  | androstenedione change from baseline | 2.08 nmol/L |
| NCC(=O)Nc1cncc(-c2nn3c(=O)cc(N4CCNCC4)nc3s2)c1 | ADP-induced platelet aggregation, light transmission aggregometry | stable CAD patients on aspirin | subcutaneous, 0.04 mg/kg, 30 min post-dose, together with: ADP 20 µM | baseline: placebo | inhibition of platelet aggregation | 42.7% |

| Compound | test | system | setting | how to read | endpoint | value |
| --- | --- | --- | --- | --- | --- | --- |
| Cc1cccc(N(O)N=Nc2ccc(S(=O)(=O)Nc3nccs3)cc2)c1 | carrageenan-induced paw edema | Wistar rat | oral, 100 mg/kg, 2 h after carrageenan, together with: carrageenan 1% subplantar | higher = more edema | paw edema volume | 5.81 ± 0.87 a.u. |
| CCCNc1nc(Nc2ccc(C#N)cc2)ncc1C#CCCCNC(=O)[C@H](C)N(C)C(=O)/C=C/CN(C)C |  | human | oral, 75 mg twice daily, after cycle one |  | marrow blasts | 10% |
| C[C@H]1C[C@H]2CSC(N)=N[C@@]2(c2nc(NC(=O)c3ccc(OC(F)F)cn3)cs2)CO1 | measured: Aβx-40 | healthy adults, plasma | 5 mg once daily, day 2 | baseline: placebo | percent change from baseline | -33.7% |
| CC(=O)Oc1cc2c(s1)CCN(C(C(=O)C1CC1)c1ccccc1F)C2 (centres unmarked) | platelet aggregation, light transmission aggregometry | human patients, platelet-rich plasma | dose not given, 15 min, aggregation above 46%, together with: ADP 5 µM |  | patients with high residual reactivity | 100% |
| O=C(OC(C(F)(F)F)C(F)(F)F)N1CCN(Cc2cccc(Oc3ccccc3)c2)CC1 | PET blocking study | rhesus monkey, brain THA | 0.01 mg/kg, compound pretreatment, together with: [18F]T-401 tracer |  | k4 | 0.0216 min⁻¹ |
| N#Cc1ccn2c(-c3ccncc3)c(-c3ccc(F)cc3)nc2c1 | kinase binding, competitor, MIB/MS competition, measured: GIN4 | Candida albicans cell lysate | 100 nM | baseline: DMSO | log2 fold change | -0.128 |
| C[C@@H](O)CCOC(=O)C[C@@H](C)O |  | human | oral drink, dose not given, 120 min post dose, median, all participants |  | plasma NEFA | 0.1 mM |
| CCCCC1(CCCC)CN(c2ccccc2)c2cc(SC)c(OCC(=O)N[C@@H](C(=O)NCC(=O)O)c3ccccc3)cc2S(=O)(=O)C1 | measured: 7α-hydroxy-4-cholesten-3-one | human, plasma | 15 mg once daily, day 9 |  | plasma C4 | 79.5 ng/mL |
| Cc1cc(F)cc2c(CCC(=O)N[C@@H]3C(=O)NC[C@H]3O)c(-c3ccc(F)cc3)[nH]c12 |  | mice, APOL1 G2, single copy | oral, 30 mg/kg twice daily, dosing from day 6, together with: IFNγ plasmid injection |  | UACR AUC days 6-14 | 4660 µg·days/mg and 7660 µg·days/mg and 6850 µg·days/mg and 40600 µg·days/mg and 6380 µg·days/mg and 21400 µg·days/mg |
| OC(CCN1CCCCC1)(c1ccccc1)C1CC2C=CC1C2 (centres unmarked) | resting-state EEG | healthy elderly humans | oral, 4 mg, eyes open, LS mean |  | EEG Alpha2-power Pz-O2 | 3.1 µV² |
| Cn1cc(Nc2nccc(-c3ccc4c(c3)CN(C3COC3)CC[C@H]4NC(=O)c3cn(C(C)(C)C)nn3)n2)cn1 | measured: NAD biosynthesis from tryptophan | splenic B cells, mice | 30 mg/kg, IgD-activated in vivo | baseline: vehicle, direction not given | pathway activation z-score | 2.24 |
| COc1ccccc1[C@H](Cn1c(=O)n(C(C)(C)C(=O)O)c(=O)c2c(C)c(-c3ncco3)sc21)OC1CCOCC1 |  | human | 50 mg, post-treatment |  | serum total cholesterol | 176 ± 51.4 mg/dL |
| Cc1noc(NS(=O)(=O)c2ccc(N=NN(C)O)cc2)c1C | carrageenan-induced paw edema | Wistar rat | oral, 100 mg/kg, 2 h after carrageenan, together with: carrageenan 1% subplantar | higher = more edema | paw edema volume | 5.8 ± 0.67 a.u. |
| C=CCn1c(=O)c2cnc(Nc3ccc(N4CCN(C)CC4)cc3)nc2n1-c1ccc2c(n1)[C@@](O)(CC)CC2 |  | BALB/c nude mouse, BxPC-3 xenograft | oral, 60 mg/kg, 1 d on 6 d off ×4, day 28 | baseline: vehicle | tumour volume difference | 372 ± 13.3 mm3 |
| CCN(O)N=Nc1ccc(S(=O)(=O)Nc2cc(C)on2)cc1 | carrageenan-induced paw edema | Wistar rat | oral, 100 mg/kg, 1 h after carrageenan, together with: carrageenan 1% subplantar | higher = more edema | paw edema volume | 5.7 ± 0.81 a.u. |
| CC(C)C[C@H](NC(=O)[C@@H](Cc1c[nH]c2ccccc12)NC(=O)[C@H](Cc1ccc(O)cc1)NC(=O)[C@H](CO)NC(=O)[C@H](Cc1c[nH]c2ccccc12)NC(=O)[C@H](Cc1c[nH]cn1)NC(=O)[C@@H]1CCC(=O)N1)C(=O)N[C@@H](CCCNC(=N)N)C(=O)N1CCC[C@H]1C(=O)NCC(N)=O | Tanner staging | Chinese boys, central precocious puberty | intramuscular, 22.5 mg day 1, month 6, month 6 | baseline: baseline | stable pubic hair stage | 100% |
| O=S(=O)(Nc1nccs1)c1ccc(N=NN(O)c2ccccc2)cc1 | carrageenan-induced paw edema | Wistar rat | oral, 100 mg/kg, 2 h after carrageenan, together with: carrageenan 1% subplantar | higher = more edema | paw edema volume | 6.61 ± 0.56 a.u. |
| COc1ccc(-c2cncc(N[C@@H](C)c3cccc(NC(=O)c4cncc(C)c4)c3)n2)cc1OC | measured: rno-miR-25-3p | rat SU5416/hypoxia model, lung | dose not given | baseline: SU5416/hypoxia vehicle | fold change | 1.51 |
| Cc1ccc(C(=O)OCc2ccc([C@@H](CN)C(=O)Nc3ccc4cnccc4c3)cc2)c(C)c1 | tonometry | NZW rabbit, magnetic bead-induced ocular hypertension | ocular, 0.02%, 28 h |  | IOP | 33.8 mmHg |

A few entries again:
| Compound | test | system | setting | how to read | endpoint | value |
| --- | --- | --- | --- | --- | --- | --- |
| O=S(=O)(Nc1nccs1)c1ccc(N=NN(O)c2ccccc2)cc1 | carrageenan-induced paw edema | Wistar rat | oral, 100 mg/kg, 2 h after carrageenan, together with: carrageenan 1% subplantar | higher = more edema | paw edema volume | 6.61 ± 0.56 a.u. |
| COc1ccc(-c2cncc(N[C@@H](C)c3cccc(NC(=O)c4cncc(C)c4)c3)n2)cc1OC | measured: rno-miR-25-3p | rat SU5416/hypoxia model, lung | dose not given | baseline: SU5416/hypoxia vehicle | fold change | 1.51 |
